Published values of several laboratories.
Lines come from different studies, so protocols differ. Several values in a cell are separate wells, animals, samples, runs or records.

Compound | tested on | test | system | setting | scale | endpoint | result
CN1CCCNC(=O)c2cccc(c2)C(=O)NCCCN(C)CCCNc2cccc3c2C(=O)c2cccc(c2C3=O)NCCC1 | SAS | RNA-Seq, refers to: ORC2 mRNA |  | 1 µM, 6 h | reference: untreated cells | log2 fold change | -0.914
COC1CN([C@H]2CC[C@H]([C@@]3(C)Oc4c(Cl)cc(C(=O)NCc5c(SC)cc(C)[nH]c5=O)c(C)c4O3)CC2)C1 |  | RNA-seq, refers to: SEMA7A | human, whole blood | dose not given, 24 h | reference: pretreatment baseline | log2 fold change | 1.61
CN1CCN(C(=O)c2ccc(-c3cc4c(N5CCC[C@H](C(=O)NCc6ccc(OC(F)(F)F)cc6)C5)ncnc4[nH]3)cc2)CC1 | KARPAS-299 | cell growth or viability, MTT |  | 0.008 µg/mL, 72 h |  | inhibition | 26.7%
COc1cc([C@@H]2O[C@@H](c3cc(OC)c(O[C@@H]4O[C@H](CO)[C@@H](O)[C@H](O)[C@H]4O)c(OC)c3)[C@H](CO)[C@H]2CO)cc(OC)c1O | 3T3-L1 | lipid accumulation, Oil Red O staining |  | 5 µM, early differentiation | reference: vehicle | inhibition | > 50%
CCCC[C@H](N)C(=O)N[C@H]1CSCc2ccc(cc2)-c2ccc(cc2)CSC[C@@H](C(=O)N[C@H](C(N)=O)[C@@H](C)O)NC(=O)[C@H](CCCCN)NC(=O)[C@H](CCCCN)NC(=O)[C@H](CCCCN)NC(=O)[C@H](Cc2ccc(O)cc2)NC(=O)[C@H](CC(N)=O)NC(=O)[C@H](CC(C)C)NC1=O | AsPC-1 (KRAS G12D) | ERK phosphorylation, Western blot, refers to: p-ERK/ERK |  | 50 µM |  | inhibition | ~75%
COc1cc(C(=O)N2CC[C@@H](O)[C@@H](N)C2)cc2nc(-c3cc4cccnc4n3CC3CC3)n(C)c12 | human neutrophils | protein citrullination, inhibitor, flow cytometry, refers to: citrullinated proteins |  | 1 µM, added: ionomycin |  | inhibition | 11.4% and 30.9% and 30.3% and 14%
CNS(=O)(=O)Nc1nccc(Cc2c(C)c3ccc(Oc4ncccc4F)cc3oc2=O)c1F | FaDu | cell viability |  | 7 days |  | IC50 | 1.8 nM
COc1cc(/C=C/C(=O)/C=C(O)/C=C/c2ccc(OCC(=O)N3CCOCCOCCOCCOCCOCC3)c(OC)c2)ccc1OCC(=O)N1CCOCCOCCOCCOCCOCC1 | COS-7 | cell growth or viability, SRB |  | 25 µM |  | inhibition | 95.7%
CCOC(=O)c1cn(CC(c2c[nH]c3cc(Br)ccc23)c2c[nH]c3cc(Br)ccc23)c(C)c1C(=O)OC | DH82 | cell growth or viability, MTS |  | 20 µM, 24 h |  | inhibition | 12.1%
Nc1ncc(-c2cc(-c3cnn(CC(F)(F)F)c3)ncc2F)nc1C(=O)NC1CNCC(F)C1 (stereo not shown) | EPHA6 | KINOMEscan |  | 1 µM | reference: DMSO control | remaining binding | 94%
C=CC(=O)N1CCC2(CCN(Cc3ccccc3)C2)C1 (stereo not shown) | T47D, 14-3-3σ knockdown vs control | ERα reporter gene |  | 10 µM, 24 h |  | inhibition | decreased
Cc1cc(NC2CCN(C)CC2)ccc1-c1cc2c(N3CCC[C@H](C(=O)N[C@H](C)c4ccccc4)C3)ncnc2[nH]1 | KARPAS-299 | cell growth or viability, MTT |  | 1 µg/mL, 72 h |  | inhibition | 88.2%
COc1cc(/C=C/C(=O)/C=C(O)/C=C/c2ccc(OCC(=O)N3CCOCCOCCOCC3)c(OC)c2)ccc1OCC(=O)N1CCOCCOCCOCC1 | COS-7 | cell growth or viability, SRB |  | 25 µM |  | inhibition | 64.9%

Excerpt of the above:
Compound | tested on | test | system | setting | scale | endpoint | result
COc1cc([C@@H]2O[C@@H](c3cc(OC)c(O[C@@H]4O[C@H](CO)[C@@H](O)[C@H](O)[C@H]4O)c(OC)c3)[C@H](CO)[C@H]2CO)cc(OC)c1O | 3T3-L1 | lipid accumulation, Oil Red O staining |  | 5 µM, early differentiation | reference: vehicle | inhibition | > 50%
